Measured values collected from several papers.
A part holds a random share of what one study measured. Positions count from the first letter of the parent shown.
Chain of UniProt P41145 (whole entry, looked up): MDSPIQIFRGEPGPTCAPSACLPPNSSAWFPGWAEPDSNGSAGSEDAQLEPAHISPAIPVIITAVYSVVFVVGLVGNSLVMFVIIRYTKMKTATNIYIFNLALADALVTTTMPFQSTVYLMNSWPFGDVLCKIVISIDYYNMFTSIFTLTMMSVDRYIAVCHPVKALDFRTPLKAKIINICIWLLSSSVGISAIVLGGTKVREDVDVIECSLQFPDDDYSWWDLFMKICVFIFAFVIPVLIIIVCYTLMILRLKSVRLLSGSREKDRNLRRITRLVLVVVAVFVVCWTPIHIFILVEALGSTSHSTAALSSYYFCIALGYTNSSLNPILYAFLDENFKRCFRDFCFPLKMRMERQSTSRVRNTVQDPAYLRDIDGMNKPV

Series 1
Target: vanadate, free oxyanion
Method: microfluidic competitive inhibition
Matrix: in vitro, cell-free expressed
Tested at: not given
Notes: derived from inhibition constants, unchanged parent 676 nM
Reading: lower = stronger binding
Measurement: oxyanion analog dissociation constant
Starting sequence: PafA, mature enzyme, eGFP fusion (Elizabethkingia meningoseptica, UniProt Q9KJX5); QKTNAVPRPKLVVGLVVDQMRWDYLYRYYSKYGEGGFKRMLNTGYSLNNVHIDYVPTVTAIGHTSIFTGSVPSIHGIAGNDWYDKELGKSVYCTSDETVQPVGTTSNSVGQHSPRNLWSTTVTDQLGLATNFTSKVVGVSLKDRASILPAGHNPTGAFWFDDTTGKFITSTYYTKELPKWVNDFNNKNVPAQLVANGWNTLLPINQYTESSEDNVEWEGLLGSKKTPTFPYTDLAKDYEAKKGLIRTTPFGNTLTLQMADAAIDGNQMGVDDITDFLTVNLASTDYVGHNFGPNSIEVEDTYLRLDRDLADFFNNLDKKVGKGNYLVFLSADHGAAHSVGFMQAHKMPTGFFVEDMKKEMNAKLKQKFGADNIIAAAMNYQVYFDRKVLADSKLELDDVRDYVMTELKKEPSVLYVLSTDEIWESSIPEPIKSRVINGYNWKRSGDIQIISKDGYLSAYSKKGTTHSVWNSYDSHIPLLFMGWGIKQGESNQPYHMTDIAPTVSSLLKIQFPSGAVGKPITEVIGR
Substitution = L41V; result = 760 nM
Substitution = M378V; result = 688 nM
Substitution = V416G; result = 601 nM
Substitution = A376V; result = 541 nM
Substitution = S210V; result = 654 nM
Substitution = F352V; result = 722 nM
Substitution = P493V; result = 776 nM
Substitution = G222V; result = 724 nM

Series 2
Target: UDP-N-acetylglucosamine--peptide N-acetylglucosaminyltransferase 110 kDa subunit (OGT, Homo sapiens, UniProt O15294)
Chain of UniProt O15294 (whole entry, looked up): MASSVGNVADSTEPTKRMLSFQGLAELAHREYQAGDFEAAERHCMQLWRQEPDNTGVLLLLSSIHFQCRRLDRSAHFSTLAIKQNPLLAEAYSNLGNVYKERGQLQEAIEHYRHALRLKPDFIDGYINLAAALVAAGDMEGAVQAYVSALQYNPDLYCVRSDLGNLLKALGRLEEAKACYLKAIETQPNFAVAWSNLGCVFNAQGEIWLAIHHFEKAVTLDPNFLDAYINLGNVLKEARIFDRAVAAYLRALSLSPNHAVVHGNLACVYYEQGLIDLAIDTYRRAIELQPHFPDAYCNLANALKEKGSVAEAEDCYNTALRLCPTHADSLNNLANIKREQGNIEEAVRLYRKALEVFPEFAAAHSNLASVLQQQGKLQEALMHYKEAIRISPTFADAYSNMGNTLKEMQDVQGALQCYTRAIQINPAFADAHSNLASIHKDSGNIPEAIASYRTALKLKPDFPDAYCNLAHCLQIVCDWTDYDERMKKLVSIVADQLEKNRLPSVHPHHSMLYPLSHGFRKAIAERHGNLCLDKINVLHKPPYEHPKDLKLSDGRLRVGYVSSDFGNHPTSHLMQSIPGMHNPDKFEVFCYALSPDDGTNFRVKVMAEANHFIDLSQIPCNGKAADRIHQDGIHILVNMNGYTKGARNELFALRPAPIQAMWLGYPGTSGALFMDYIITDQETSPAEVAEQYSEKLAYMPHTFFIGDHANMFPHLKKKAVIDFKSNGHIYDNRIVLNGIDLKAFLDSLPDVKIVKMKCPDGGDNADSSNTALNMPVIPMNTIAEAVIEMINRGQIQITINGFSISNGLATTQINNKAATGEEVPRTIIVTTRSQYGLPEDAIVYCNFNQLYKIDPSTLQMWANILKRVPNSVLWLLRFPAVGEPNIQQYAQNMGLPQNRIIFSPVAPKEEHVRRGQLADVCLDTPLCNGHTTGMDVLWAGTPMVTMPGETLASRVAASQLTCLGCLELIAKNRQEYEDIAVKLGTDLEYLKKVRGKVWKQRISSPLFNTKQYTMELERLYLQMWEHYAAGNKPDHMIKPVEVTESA
Effect on: binding
Method: phage display NGS
Molecule type: peptide
Reference: input library
Measurement: minimum log2 enrichment ratio
Molecule = GMRQPPYMPLYQIEV; result = 4.47
Molecule = DFMPYYQIIYTAPQS; result = 5.75
Molecule = FNSPFMPVYPITFTN; result = 3.67
Molecule = YSTHDTHMWHQTHAM; result = 1.88
Molecule = FSPYRHFQHSHSSTD; result = 1.34
Molecule = QHITHYHFTHQFDTH; result = 1.83
Molecule = HLPSHYEAKPTKHHR; result = 3.23
Molecule = EIPTVDFHPMYMIKI; result = 1.44

Mixed results
CCNB2: CCNB2, cyclin fold, Cln2 fusion (human)
P1: viral docking peptide; YKVKRRLVFGADD; partner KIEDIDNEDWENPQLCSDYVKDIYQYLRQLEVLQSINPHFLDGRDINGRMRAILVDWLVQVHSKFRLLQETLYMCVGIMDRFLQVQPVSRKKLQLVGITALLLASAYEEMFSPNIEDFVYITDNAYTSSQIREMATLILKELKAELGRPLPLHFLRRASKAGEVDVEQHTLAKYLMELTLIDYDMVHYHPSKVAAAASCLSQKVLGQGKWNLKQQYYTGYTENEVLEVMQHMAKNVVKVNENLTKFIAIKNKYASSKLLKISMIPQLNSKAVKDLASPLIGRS
Molecule = P1 D12F; target = CCNB2; assay = yeast growth competition, sequencing; system = yeast; conditions = strong parent motif; scale = reference: not given, higher = stronger binding; measurement = normalised enrichment score; result = 1.39
Molecule = CNC(=O)c1cc(C(=O)N[C@H]2[C@@H]3COC[C@@H]32)cc2c1O[C@H](CF)[C@H]2c1ccccc1; target = OPRK1 (Homo sapiens, UniProt P41145); assay = binding, radioligand binding; conditions = 10 µM; measurement = inhibition; result = 1.22%
Molecule = P1 F9C; target = CCNB2; assay = yeast growth competition, sequencing; system = yeast; conditions = strong parent motif; scale = reference: not given, higher = stronger binding; measurement = normalised enrichment score; result = 0.779
Molecule = KKAKRRLFTISDS; target = human cyclin A2; assay = peptide binding, competitive growth sequencing; system = peptide, Saccharomyces cerevisiae, cyclin A2-Cln2 fusion strain; conditions = concentration not given, mutational scanning library; scale = reference: unfused Cln2 strain, direction not given; measurement = binding score; result = 1.36
Molecule = P1 K2H; target = CCNB2; assay = yeast growth competition, sequencing; system = yeast; conditions = strong parent motif; scale = reference: not given, higher = stronger binding; measurement = normalised enrichment score; result = 1.95

Excerpt of the above (series 1):
Substitution = S210V; result = 654 nM
Substitution = F352V; result = 722 nM
